Measured values collected from several papers.
A part holds a random share of what one study measured. Changes are numbered by the printed parent chain.
Chain of UniProt Q9FGV1 (whole entry, looked up): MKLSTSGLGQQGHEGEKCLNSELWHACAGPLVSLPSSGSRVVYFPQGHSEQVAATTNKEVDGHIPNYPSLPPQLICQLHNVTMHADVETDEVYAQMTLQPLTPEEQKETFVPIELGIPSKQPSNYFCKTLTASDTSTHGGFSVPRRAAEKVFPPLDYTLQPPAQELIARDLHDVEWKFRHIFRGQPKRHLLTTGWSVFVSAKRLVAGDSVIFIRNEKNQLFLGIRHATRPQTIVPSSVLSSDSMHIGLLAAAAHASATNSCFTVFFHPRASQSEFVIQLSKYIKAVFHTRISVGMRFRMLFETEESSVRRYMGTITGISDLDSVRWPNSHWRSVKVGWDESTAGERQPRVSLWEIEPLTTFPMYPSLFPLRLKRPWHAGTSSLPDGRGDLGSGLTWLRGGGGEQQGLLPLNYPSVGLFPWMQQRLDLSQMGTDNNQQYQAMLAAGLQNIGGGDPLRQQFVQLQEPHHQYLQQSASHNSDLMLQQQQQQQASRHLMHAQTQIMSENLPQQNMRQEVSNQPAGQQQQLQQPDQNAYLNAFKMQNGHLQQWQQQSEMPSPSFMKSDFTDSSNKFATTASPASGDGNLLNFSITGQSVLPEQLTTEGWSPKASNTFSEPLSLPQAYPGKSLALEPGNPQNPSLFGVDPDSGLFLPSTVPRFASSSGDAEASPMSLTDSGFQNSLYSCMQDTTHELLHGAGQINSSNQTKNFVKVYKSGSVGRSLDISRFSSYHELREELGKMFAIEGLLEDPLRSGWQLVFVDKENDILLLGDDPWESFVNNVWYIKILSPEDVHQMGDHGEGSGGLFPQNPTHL
Chain of UniProt Q9C7I9 (whole entry, looked up): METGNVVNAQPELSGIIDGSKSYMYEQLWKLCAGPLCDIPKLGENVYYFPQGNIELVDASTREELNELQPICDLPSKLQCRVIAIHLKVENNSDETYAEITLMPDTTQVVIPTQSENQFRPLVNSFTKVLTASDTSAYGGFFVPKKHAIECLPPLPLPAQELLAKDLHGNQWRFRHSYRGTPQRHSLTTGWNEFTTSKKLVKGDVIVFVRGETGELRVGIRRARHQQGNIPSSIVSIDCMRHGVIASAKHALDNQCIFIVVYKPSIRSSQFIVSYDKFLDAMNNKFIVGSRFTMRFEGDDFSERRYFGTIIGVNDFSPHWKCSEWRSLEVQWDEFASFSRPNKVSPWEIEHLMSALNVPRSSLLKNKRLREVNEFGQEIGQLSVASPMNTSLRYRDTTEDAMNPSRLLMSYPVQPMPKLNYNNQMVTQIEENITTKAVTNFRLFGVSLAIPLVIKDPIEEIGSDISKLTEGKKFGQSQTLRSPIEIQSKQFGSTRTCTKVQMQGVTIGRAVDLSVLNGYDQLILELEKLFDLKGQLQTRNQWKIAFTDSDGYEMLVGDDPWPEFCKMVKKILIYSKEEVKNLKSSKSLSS
Chain of UniProt O23661 (whole entry, looked up): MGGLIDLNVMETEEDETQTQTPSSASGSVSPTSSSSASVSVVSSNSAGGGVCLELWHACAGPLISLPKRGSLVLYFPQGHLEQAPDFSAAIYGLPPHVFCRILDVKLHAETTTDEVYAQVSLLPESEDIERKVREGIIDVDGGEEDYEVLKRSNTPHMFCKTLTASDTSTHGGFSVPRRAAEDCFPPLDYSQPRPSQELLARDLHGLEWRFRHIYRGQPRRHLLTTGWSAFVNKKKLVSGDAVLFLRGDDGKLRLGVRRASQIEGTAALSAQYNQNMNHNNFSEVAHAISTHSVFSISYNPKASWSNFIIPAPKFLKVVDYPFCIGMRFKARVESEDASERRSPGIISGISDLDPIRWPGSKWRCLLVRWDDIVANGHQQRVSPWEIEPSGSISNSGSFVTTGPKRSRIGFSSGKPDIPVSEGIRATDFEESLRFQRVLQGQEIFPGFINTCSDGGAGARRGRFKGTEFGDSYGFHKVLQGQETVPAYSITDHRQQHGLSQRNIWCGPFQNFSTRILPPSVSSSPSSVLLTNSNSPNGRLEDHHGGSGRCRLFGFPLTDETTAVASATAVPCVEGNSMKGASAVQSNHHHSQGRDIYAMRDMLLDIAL
Chain of UniProt Q9FX25 (whole entry, looked up): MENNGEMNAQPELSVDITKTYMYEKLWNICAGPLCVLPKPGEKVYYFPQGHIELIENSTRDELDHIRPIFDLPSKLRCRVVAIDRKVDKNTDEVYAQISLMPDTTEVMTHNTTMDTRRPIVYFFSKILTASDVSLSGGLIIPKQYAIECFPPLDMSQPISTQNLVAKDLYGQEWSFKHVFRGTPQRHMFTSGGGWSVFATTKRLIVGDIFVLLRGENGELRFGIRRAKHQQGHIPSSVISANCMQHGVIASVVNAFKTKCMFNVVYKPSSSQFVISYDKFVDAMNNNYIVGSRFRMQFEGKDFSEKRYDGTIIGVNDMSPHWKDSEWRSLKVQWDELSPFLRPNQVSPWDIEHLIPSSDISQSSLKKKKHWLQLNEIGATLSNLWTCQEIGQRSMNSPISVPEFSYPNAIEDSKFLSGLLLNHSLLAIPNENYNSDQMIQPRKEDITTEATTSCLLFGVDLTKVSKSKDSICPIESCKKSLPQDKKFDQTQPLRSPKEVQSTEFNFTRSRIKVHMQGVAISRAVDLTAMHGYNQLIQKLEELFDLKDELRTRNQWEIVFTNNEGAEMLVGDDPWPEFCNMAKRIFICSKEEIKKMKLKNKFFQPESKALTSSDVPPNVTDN

Study 1
Target: TAR DNA-binding protein 43, full length, His tag (TARDBP, Homo sapiens, UniProt Q13148, residues 1-414)
Method: RNA Bind-n-Seq
Form: RNA
Sample: in vitro
Tested at: 20 nM
Setting: 6-mer, flanks averaged, single round
Together with: 150 mM KCl
Reference: input library
Direction: higher = stronger binding
| Strand | 6-mer enrichment (R) |
| --- | --- |
| ACCCAA | 0.654 |
| UGUAAU | 0.681 |
| UUGUGG | 1.41 |
| CUACCU | 0.568 |
| GAACGG | 1.85 |
| UCCCGG | 0.816 |
| GAUCGU | 0.782 |
| CGCGAG | 1.45 |

Study 2
Target: DDIT3, bZIP domain (human)
Method: DHFR protein complementation
Sample: yeast
Setting: single substitutions, most at no-binding floor
Reference: wild-type JUN-FOS pair
Direction: higher = stronger binding
Starting sequence: JUN, bZIP domain (human); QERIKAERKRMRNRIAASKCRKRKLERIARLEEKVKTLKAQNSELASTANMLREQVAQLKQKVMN; partner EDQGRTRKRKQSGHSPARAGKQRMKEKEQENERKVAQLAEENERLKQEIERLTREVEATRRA
| Change | binding fitness |
| --- | --- |
| S47P | -1.12 natural log |
| E54C | -0.269 natural log |
| L38P | -1.19 natural log |
| A49C | -0.0744 natural log |
| R30M | 0.114 natural log |
| K34E | 0.00684 natural log |
| A57T | 0.0344 natural log |
| K39V | 0.00751 natural log |

Study 3
Molecule: B1 (IAA34)
Method: two-hybrid
Direction: higher = firmer interaction
B1: IAA34 (Arabidopsis thaliana, UniProt Q9C5X0); chain MYCSDPPHPLHLVASDKQQKDHKLILSWKKPTMDSDPLGVFPNSPKYHPYYSQTTEFGGVIDLGLSLRTIQHEIYHSSGQRYCSNEGYRRKWGYVKVTMDGLVVGRKVCVLDHGSYSTLAHQLEDMFGMQSVSGLRLFQMESEFCLVYRDEEGLWRNAGDVPWNEFIESVERLRITRRNDAVLPF
| partner | how to read | positive tests |
| --- | --- | --- |
| ARF13 (Arabidopsis thaliana, UniProt Q9FX25) | reference: out of 2 tests | 0 |
| ETT (Arabidopsis thaliana, UniProt O23661) | reference: out of 4 tests | 0 |
| ARF20 484-590 (Arabidopsis thaliana, UniProt Q9C7I9) | reference: out of 2 tests | 0 |
| ARF8 699-811 (Arabidopsis thaliana, UniProt Q9FGV1) | reference: out of 2 tests | 1 |

Further values, each from its own experiment
Starting sequence: PafA, mature enzyme, eGFP fusion (Elizabethkingia meningoseptica, UniProt Q9KJX5); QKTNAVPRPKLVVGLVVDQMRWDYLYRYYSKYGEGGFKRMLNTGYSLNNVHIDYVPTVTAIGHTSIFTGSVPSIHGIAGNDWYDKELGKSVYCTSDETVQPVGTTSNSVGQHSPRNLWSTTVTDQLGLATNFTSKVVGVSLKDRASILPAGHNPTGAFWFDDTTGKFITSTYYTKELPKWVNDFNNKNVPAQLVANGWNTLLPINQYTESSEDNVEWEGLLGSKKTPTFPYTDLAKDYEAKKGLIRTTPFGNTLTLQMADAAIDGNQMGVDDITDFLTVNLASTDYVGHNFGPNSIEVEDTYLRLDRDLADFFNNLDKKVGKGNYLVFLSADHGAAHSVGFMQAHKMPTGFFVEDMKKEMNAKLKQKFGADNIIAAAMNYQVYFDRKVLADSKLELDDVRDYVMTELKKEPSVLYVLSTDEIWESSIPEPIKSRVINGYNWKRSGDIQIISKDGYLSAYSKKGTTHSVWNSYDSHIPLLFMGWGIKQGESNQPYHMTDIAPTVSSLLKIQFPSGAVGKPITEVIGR
| Change | target | assay | test system | conditions | how to read | endpoint | value |
| --- | --- | --- | --- | --- | --- | --- | --- |
| E218G | vanadate, free oxyanion | microfluidic competitive inhibition | in vitro, cell-free expressed | not given, derived from inhibition constants, unchanged parent 676 nM | lower = stronger binding | oxyanion analog dissociation constant | 706 nM |

A few entries again (study 2):
| Change | binding fitness |
| --- | --- |
| E54C | -0.269 natural log |
| L38P | -1.19 natural log |
